Published values of several laboratories.
Protocols differ between the studies behind these lines. Several values in a cell are separate wells, animals, samples, runs or records. ± marks the error that the study gave.
PSMB6: Proteasome subunit beta type-6 (PSMB6, Homo sapiens, UniProt P28072)
KCNH2: Voltage-gated inwardly rectifying potassium channel KCNH2 (KCNH2, Homo sapiens, UniProt Q12809)
CSK: Tyrosine-protein kinase CSK (CSK, Homo sapiens, UniProt P41240)
Toll-like receptor 3: Toll-like receptor 3 (Homo sapiens, UniProt O15455)
CA1: Carbonic anhydrase 1 (CA1, Homo sapiens, UniProt P00915)
PLA2G5: Phospholipase A2 group V (PLA2G5, Homo sapiens, UniProt P39877)
SLC6A4: Sodium-dependent serotonin transporter (SLC6A4, Homo sapiens, UniProt P31645)
SLC18A2: Synaptic vesicular amine transporter (SLC18A2, Homo sapiens, UniProt Q05940)

Nc1nonc1-n1cc(C(=O)N/N=C/c2cc(Cl)cc(C(F)(F)F)c2)nn1 — IC50 (NAD-dependent protein deacylase sirtuin-6 (SIRT6, Homo sapiens, UniProt Q8N6T7); H3K9Ac deacetylation, inhibitor): 9.15 ± 0.21 µM
COc1ccc(C[C@H](NC(=O)[C@H](C)NC(=O)CN2CCOCC2)C(=O)N[C@@H](CC2CCC(OC)CC2)C(=O)[C@@]2(C)CO2)cc1 (stereo partly drawn) — IC50 (PSMB6; competitive ABPP; Raji cell lysate): > 10 µM
CC(C)(C)NC(=O)C[C@H](NC(=O)C(=O)c1c[nH]c2ccccc12)C(=O)NCc1cccc(B(O)O)c1 — IC50 (PSMB6; inhibitor): > 33.3 µM
CC[C@@H]1[C@H](F)C(=O)N[C@@H]1COc1nccc2cc(C(N)=O)c(OC)cc12 — IC50 (Serine/threonine-protein kinase 24 (STK24, Homo sapiens, UniProt Q9Y6E0); ATP probe binding, KiNativ profiling, item: MST3 Lys1 probe site; THP-1 cell lysate): > 5 µM
COc1ccc(C[C@H](NC(=O)[C@H](C)NC(=O)CN2CCOCC2)C(=O)N[C@@H](CC2CCC(C3CCCCC3)CC2)C(=O)[C@@]2(C)CO2)cc1 (stereo partly drawn) — IC50 (PSMB6; competitive ABPP; Raji cell lysate): > 10 µM
c1cc2c3c(cccc3c1)CC2 — IC50 (Cytochrome P450 2A6 (CYP2A6, Homo sapiens, UniProt P11509); enzyme activity, inhibitor; 20 min, pH 7.4): 29 µM
Cc1ccc(S(=O)(=O)n2cc(/C=N/NC(=S)Nc3ccccc3)c3ccccc32)cc1 — IC50 (mushroom tyrosinase; enzyme activity, inhibitor; with: L-DOPA substrate): 42.2 ± 0.76 µM
CC1(C)CN(C(=O)Cn2c(=O)c(C(=O)NCc3ccc(Cl)cc3)cc3nccnc32)C1 — IC50 (KCNH2; ion current, automated patch clamp): 4.85 µM
Cc1ccc(S(=O)(=O)n2cc(/C=N/NC(=S)Nc3ccc(C)cc3C)c3ccccc32)cc1 — IC50 (mushroom tyrosinase; enzyme activity, inhibitor; with: L-DOPA substrate): 19.4 ± 0.26 µM
CN1CCN(c2ccc(Nc3ncc4cc(C#N)c(=O)n(C5CCCC5)c4n3)cc2)CC1 — IC50 (CSK): 0.602 µM
Cc1ncc(C(=O)N[C@@H](CC(C)C)C(=O)N[C@@H](CC2CCCCC2)C(=O)N[C@H](/C=C/S(C)(=O)=O)Cc2ccc(CN)cc2)s1 — IC50 (PSMB6; competitive ABPP; Raji cell lysate): > 10 µM
CC(=O)OCc1ccc2[nH]c3c(C)c4ccncc4c(C)c3c2c1 — IC50 (Toll-like receptor 3; reporter gene, inhibitor; HEK-Blue hTLR3; with: poly(I:C)): 0.09 ± 0.01 µM
CC1=CC(C)=[N+]2C1=Cc1ccc(CCCCCCCCCCCCCCCC(=O)O)n1[B-]2(F)F — IC50 (Interferon-induced, double-stranded RNA-activated protein kinase (EIF2AK2, Homo sapiens, UniProt P19525, R307A); autophosphorylation, inhibitor, Western blot; purified mutant PKR): 80.3 ± 5.63 µM
Cc1cc(OC(C)C)ccc1C(=O)C(C)(C)NC(=O)c1sccc1C — IC50 (mitochondrial complex I-III (NADH-cytochrome c oxidoreductase), Botrytis cinerea; enzyme activity, inhibitor; mitochondrial fraction): > 1 µg/mL
Cc1ncc(COP(=O)(O)O)c(C=O)c1O — IC50 (PDX3 (Saccharomyces cerevisiae, UniProt P38075); PNP oxidase activity, inhibitor; with: 4 mM PNP substrate, 0.4 mM FMN): 2400 µM
CC(C)CNC(=S)N/N=C/c1ccc(N2CCC(O)CC2)cc1 — IC50 (CA1; enzyme activity, inhibitor): 0.769 µM
CCc1ccc(/C=N/n2c(C)nc3ccc(C)cc3c2=O)s1 — IC50 (PLA2G5; enzyme activity, inhibitor, colorimetric): 71.3 ± 2.73 µM
Cc1ncc(C(=O)N[C@@H](CC(C)C)C(=O)N[C@@H](CC(C)C)C(=O)N[C@H](/C=C/S(C)(=O)=O)Cc2ccc(CN)cc2)s1 — IC50 (PSMB6; competitive ABPP; Raji cell lysate): > 10 µM
Cc1nc(F)ccc1-c1cc(Cn2ccn(C)c2=N)cc(C(=O)NCc2ccc(Cl)c(Cl)c2)c1 — IC50 (WD repeat-containing protein 5, MLL3 complex (WDR5, Homo sapiens, UniProt P61964); MLL3 methyltransferase activity, inhibitor; with: H3 peptide substrate): > 20 µM
CCn1c(-c2nc3ccc(C(=O)N4CCCC(N)C4)cc3n2C)cc2ccccc21 (stereo not drawn) — IC50 (5-hydroxytryptamine receptor 1B (HTR1B, Homo sapiens, UniProt P28222); antagonist, GTPγS binding): > 31.6 µM
Cn1cc2c(C(=O)O)ccc(NS(=O)(=O)c3ccc(OCC4CCC4)c(Cl)c3)c2n1 — IC50 (SLC6A4; antagonist): > 10 µM
O=C(O)CCC(=O)c1ccc(S(=O)(=O)N2CCCC2)cc1 — Kd (Ubiquitin carboxyl-terminal hydrolase 20, ZnF-UBD domain (USP20, Homo sapiens, UniProt Q9Y2K6)): 798 µM
O=C(Nc1cccc2c(=O)cc(-c3nnn[nH]3)oc12)c1ccc(OCCCCc2ccccc2)cc1 — IC50 (LRRC8A/LRRC8C (Homo sapiens, UniProt Q8IWT6+Q8TDW0, Y124F/Y126F); ion current, inhibitor, whole-cell patch clamp; HCT116 LRRC8-/- transfected; at -100 mV): 45.1 µM
CC1=NOC(CNC(=O)c2cnc3c(c(C)nn3C)c2Cl)C1 (stereo not drawn) — IC50 (Malate dehydrogenase, mitochondrial (MDH2, Sus scrofa, UniProt P00346); enzyme activity, reporter counter-screen; native enzyme): > 63 µM
C=CC(=O)Nc1cccc(Oc2nc(Nc3ccc(N4CCN(C)CC4)cc3)nc3ccoc23)c1 — IC50 (Tyrosine-protein kinase SYK (SYK, Homo sapiens, UniProt P43405)): 0.103 µM
Cc1c2ccncc2c(C)c2c1[nH]c1ccc(C=O)cc12 — IC50 (Toll-like receptor 3; reporter gene, inhibitor; HEK-Blue hTLR3; with: poly(I:C)): 6.78 ± 1.55 µM
Cc1nc2ccc(Cl)cc2c(=O)n1NC(=O)CCl — IC50 (PLA2G5; enzyme activity, inhibitor, colorimetric): 112 ± 1.49 µM
CC(C)C[C@H](NC(=O)[C@H](Cc1ccc(O)cc1)NC(=O)[C@@H](N)CCCNC(=N)N)C(=O)N1CCC[C@H]1C(=O)N[C@H](C(=O)O)[C@@H](C)O — IC50 (rat neuron-specific aminopeptidase; enzyme activity, inhibitor): 0.8 µM
COc1ccc(NC(=S)N/N=C/c2ccc(N3CCC(O)CC3)cc2)cc1 — IC50 (CA1; enzyme activity, inhibitor): 0.633 µM
Cc1ccc(NC(=O)c2ccc(C)c(C(F)(F)F)c2)cc1C#Cc1nn(C2CCC(O)CC2)c2ncnc(N)c12 (stereo not drawn) — IC50 (CSK; inhibitor, radiometric kinase; with: ATP 10 µM): 0.009 µM
COc1cc2c(cc1OC)C1CC(=O)C(CC(C)C)CN1CC2 (stereo not drawn) — IC50 (SLC18A2; binding, competition binding; cell membranes; 4 °C, with: 3 nM [3H]dihydrotetrabenazine): 0.165 µM
Cc1cnc(-c2ccc(-c3ccc(NC(=O)Nc4c(F)cc(F)cc4F)cc3F)c3c2C(=O)NC3)[nH]1 — IC50 (Vascular endothelial growth factor receptor 1 (FLT1, Homo sapiens, UniProt P17948); enzyme activity, inhibitor, mobility shift; with: ATP 1 mM): 0.208 µM
COc1cnc2c(cc(C(=O)NCc3ccc(Cl)cc3)c(=O)n2CC(=O)N2CC(C)(F)C2)n1 — IC50 (KCNH2; potassium current, inhibitor, automated patch clamp; CHO cells expressing hERG): 2.9 µM
O=C(NCCCCCCO)c1cc2ccccc2oc1=O — IC50 (Retinal rod rhodopsin-sensitive cGMP 3',5'-cyclic phosphodiesterase subunit delta (PDE6D, Homo sapiens, UniProt O43924)): 855 µM
Cc1ccc(S(=O)(=O)n2cc(/C=N/NC(=S)Nc3ccc(Br)cc3)c3ccccc32)cc1 — IC50 (mushroom tyrosinase; enzyme activity, inhibitor; with: L-DOPA substrate): 25.3 ± 0.38 µM
Cc1cc(C)c2nc(C)cc(NCCc3ccccc3)c2c1 — IC50 (CatSper channel complex (Homo sapiens, UniProt Q7RTX7+Q86XQ3+Q8NEC5+Q96P56); calcium influx, inhibitor, FLIPR; human sperm; with: high pH, high potassium): 7.8 µM
FC(F)(F)Oc1ccc(Oc2ccnc(N3CCC(NC(=S)Nc4cccnc4)CC3)c2Cl)c(Cl)c1 — IC50 (Lysophosphatidylserine lipase ABHD12 (Abhd12, Mus musculus, UniProt Q99LR1); lyso-PS hydrolysis, inhibitor; transfected HEK293T membrane lysate): 0.027 µM
CC(=O)N1C[C@H](CCN2CCC(c3c[nH]c4cc(Cl)ccc34)CC2)c2ccccc21 — IC50 (SLC6A4; inhibitor): 1.48 µM
c1ccc2[nH]c(-c3cscn3)nc2c1 — IC50 (Glycogen synthase kinase-3 alpha (GSK3A, Homo sapiens, UniProt P49840); kinase activity, inhibitor, Z'-LYTE): 64.4 µM
Cc1ncc(C(=O)N[C@@H](CC(C)C)C(=O)N[C@@H](CC2CCC3CCCCC3C2)C(=O)N[C@H](/C=C/S(C)(=O)=O)Cc2ccc(CN)cc2)s1 (stereo partly drawn) — IC50 (PSMB6; competitive ABPP; Raji cell lysate): > 10 µM
COc1ccc2c3c([nH]c2c1)[C@H](CC(C)C)N1C(=O)[C@H](CC(=O)NC2CCCCC2)NC(=O)[C@@H]1C3 — IC50 (Broad substrate specificity ATP-binding cassette transporter ABCG2 (ABCG2, Homo sapiens, UniProt Q9UNQ0); inhibitor, item: protoporphyrin IX; A549; 2 h, with: 1 mM ALA): 0.215 µM and 0.0896 µM and 0.0854 µM
Cc1ncc(C(=O)N[C@@H](CCC2CCCCC2)C(=O)N[C@@H](CC(C)C)C(=O)N[C@H](/C=C/S(C)(=O)=O)Cc2ccc(CN)cc2)s1 — IC50 (PSMB6; competitive ABPP; Raji cell lysate): > 10 µM
CCc1ccc(Cn2nnc3c4ccc(F)cc4c(=O)[nH]c32)cc1 — IC50 (Protein mono-ADP-ribosyltransferase PARP15 (PARP15, Homo sapiens, UniProt Q460N3)): > 10 µM
COc1cc2c(cc1OC)C1CC(=O)C(CC(C)C)CN1CC2 (stereo not drawn) — IC50 (SLC18A2; FFN206 uptake, inhibitor; HEK293): 0.135 µM
COc1ccc(C[C@H](NC(=O)[C@H](C)NC(=O)CN2CCOCC2)C(=O)N[C@@H](CC2CC3CCC2C3)C(=O)[C@@]2(C)CO2)cc1 (mixture of isomers) — IC50 (PSMB6; competitive ABPP; Raji cell lysate): > 10 µM
O=C(NCc1cc(Cl)cc(Cl)c1)c1cccc(Cn2ccnc2)c1 — IC50 (WD repeat-containing protein 5, MLL1 complex (WDR5, Homo sapiens, UniProt P61964); MLL1 methyltransferase activity, inhibitor; with: H3 peptide substrate): > 3 µM
COc1ccccc1N1CCN(C(=O)c2ccc(S(=O)(=O)n3cnc(C4CCCCC4)n3)cc2)CC1 — IC50 (Aldo-keto reductase family 1 member C3 (AKR1C3, Homo sapiens, UniProt P42330); coumberone reduction; HEK-293T overexpressing AKR1C3): 0.013 µM
O=c1nc(SCc2cc(F)cc(C(F)(F)F)c2)nc(SCc2ccc3nc(Cl)ccc3c2)[nH]1 — IC50 (DNA topoisomerase 2-alpha (TOP2A, Homo sapiens, UniProt P11388); ATPase activity, inhibitor, competitive ATPase; with: 0.25 mM ATP): 22.9 µM

For quick reference, copied from above:
CC1(C)CN(C(=O)Cn2c(=O)c(C(=O)NCc3ccc(Cl)cc3)cc3nccnc32)C1 — IC50 (KCNH2; ion current, automated patch clamp): 4.85 µM
c1ccc2[nH]c(-c3cscn3)nc2c1 — IC50 (Glycogen synthase kinase-3 alpha (GSK3A, Homo sapiens, UniProt P49840); kinase activity, inhibitor, Z'-LYTE): 64.4 µM
COc1ccc(NC(=S)N/N=C/c2ccc(N3CCC(O)CC3)cc2)cc1 — IC50 (CA1; enzyme activity, inhibitor): 0.633 µM
Cc1ccc(NC(=O)c2ccc(C)c(C(F)(F)F)c2)cc1C#Cc1nn(C2CCC(O)CC2)c2ncnc(N)c12 (stereo not drawn) — IC50 (CSK; inhibitor, radiometric kinase; with: ATP 10 µM): 0.009 µM
COc1cc2c(cc1OC)C1CC(=O)C(CC(C)C)CN1CC2 (stereo not drawn) — IC50 (SLC18A2; FFN206 uptake, inhibitor; HEK293): 0.135 µM
CCc1ccc(Cn2nnc3c4ccc(F)cc4c(=O)[nH]c32)cc1 — IC50 (Protein mono-ADP-ribosyltransferase PARP15 (PARP15, Homo sapiens, UniProt Q460N3)): > 10 µM
